Published values pooled from the literature.
Numbered parts are unrelated; each lists some results of a single study.

Block 1
Target: Prothrombin, mature alpha-thrombin (F2, Homo sapiens, UniProt P00734)
Technique: aptamer microarray, sandwich
Molecule type: DNA with 2'F-ANA
Sample: in vitro
Tested at: 200 nM
Notes: whole 15-mer aptamer, many near background
Added: Cy3 exosite-II aptamer, 400 nM
Direction: higher = stronger binding
Strand: GGTTGGTGTGGTTGG
For `2'F-ANA at 1 4 5 6 9 10 15`, “mean fluorescence intensity” read 74.2 a.u.
`2'F-ANA at 2 3 10 15` — result for “mean fluorescence intensity”: 399 a.u.
Under “mean fluorescence intensity”, `2'F-ANA at 2 4 6 10 11 14 15` is recorded as 61.5 a.u.
`2'F-ANA at 2 3 6 9 10 12 13`: “mean fluorescence intensity” 347 a.u.
`2'F-ANA at 2 4 10 14 15` — result for “mean fluorescence intensity”: 65.6 a.u.
For `2'F-ANA at 3 4 5 7 8 9 11 12 13 14`, “mean fluorescence intensity” read 69.4 a.u.
For `2'F-ANA at 1 3 6 10`, “mean fluorescence intensity” read 81.9 a.u.
For `2'F-ANA at 2 4 5 8 10 11 13`, “mean fluorescence intensity” read 48.6 a.u.
`2'F-ANA at 3 4 6 7 11 12 13 14 15`: “mean fluorescence intensity” 299 a.u.
`2'F-ANA at 3 4 5 7 11 12 14 15` — result for “mean fluorescence intensity”: 77.9 a.u.
For `2'F-ANA at 2 4 5 6 7 8 9 12 15`, “mean fluorescence intensity” read 155 a.u.
For `2'F-ANA at 2 3 5 12 13 14 15`, “mean fluorescence intensity” read 57.3 a.u.
`2'F-ANA at 2 4 5 6 7 10 11 13 15`: “mean fluorescence intensity” 49.3 a.u.
Under “mean fluorescence intensity”, `2'F-ANA at 4 5 6 9 10 11 12 15` is recorded as 59.1 a.u.
`2'F-ANA at 3 4 5 6 7 8 10 13 15` — result for “mean fluorescence intensity”: 64.3 a.u.
`2'F-ANA at 2 3 10 12` — result for “mean fluorescence intensity”: 689 a.u.
`2'F-ANA at 2 3 4 5 7 8 9 11 12 13 14 15` — result for “mean fluorescence intensity”: 54.2 a.u.
For `2'F-ANA at 1 2 3 4 5 9 10 11 12 13 15`, “mean fluorescence intensity” read 52.4 a.u.
Under “mean fluorescence intensity”, `2'F-ANA at 2 4 5 6 9 10 11 13 14 15` is recorded as 48.2 a.u.
`2'F-ANA at 1 6 7 8 11 12 13 15` — result for “mean fluorescence intensity”: 291 a.u.
For `2'F-ANA at 1 2 3 5 6 7 10 11 13`, “mean fluorescence intensity” read 46.8 a.u.
`2'F-ANA at 1 3 5 6 7 10 11 12 13 14`: “mean fluorescence intensity” 48.6 a.u.
For `2'F-ANA at 1 2 4 5 6 7 8 9 11 13`, “mean fluorescence intensity” read 51.6 a.u.
`2'F-ANA at 1 6 9 12` — result for “mean fluorescence intensity”: 355 a.u.

Block 2
Target: Interferon regulatory factor 7, full length, phosphomimetic (IRF7, Homo sapiens, UniProt Q92985, residues 1-503, S471D/S472D/S475D/S476D/S477D/S483D/S484D/S487D)
Technique: protein-binding microarray
Molecule type: double-stranded DNA, one strand shown
Sample: in vitro
Tested at: 2200 nM top
Notes: 60-bp whole probe
Added: salmon DNA 0.4 mg/ml
Relative to: random background probes
Direction: higher = stronger binding
All sequences stand within: GCCTAGCAC … GTCTTGATTCGCTTGACGCTGCTG
Residues (chain): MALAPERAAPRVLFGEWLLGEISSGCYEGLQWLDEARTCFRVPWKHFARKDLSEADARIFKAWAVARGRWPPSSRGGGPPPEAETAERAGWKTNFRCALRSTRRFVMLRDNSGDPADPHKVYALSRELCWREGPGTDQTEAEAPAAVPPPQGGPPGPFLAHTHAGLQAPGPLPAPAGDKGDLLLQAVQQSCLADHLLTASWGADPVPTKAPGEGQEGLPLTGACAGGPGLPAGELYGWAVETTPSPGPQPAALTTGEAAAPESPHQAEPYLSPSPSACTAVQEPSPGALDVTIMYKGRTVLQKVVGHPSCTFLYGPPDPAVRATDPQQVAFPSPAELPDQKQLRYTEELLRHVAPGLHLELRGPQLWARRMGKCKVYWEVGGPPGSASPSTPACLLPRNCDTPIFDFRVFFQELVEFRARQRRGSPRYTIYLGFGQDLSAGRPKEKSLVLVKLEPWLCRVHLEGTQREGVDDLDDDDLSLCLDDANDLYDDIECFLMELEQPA
For `GACGATTTCGGACTGGAGACGTGCTAG`, “fitted relative affinity” read 1.43 z-score.
`GACGGTATCGGTCTCGGGAAGTGCTAG`: “fitted relative affinity” 0.136 z-score.
`TTAGAACTGAGTAGCGATTAGTGCTAG`: “fitted relative affinity” -0.746 z-score.
`TTAGATATCAGGACTGGATTAGTGCTA` — result for “fitted relative affinity”: -0.519 z-score.
For `GGCAGCCTCTGCATTCCCTCAGTGCTA`, “fitted relative affinity” read -0.38 z-score.
For `GACGTTATCAGTTTCGAGACGTGCTAG`, “fitted relative affinity” read 3.83 z-score.
`GACGGTTTCCCTATCCTGACGTGCTAG` — result for “fitted relative affinity”: 3.19 z-score.
`GACGGACAGGGGTATCGGGACGTGCTA`: “fitted relative affinity” -0.883 z-score.
Under “fitted relative affinity”, `TTAGGTTCCGCTTTCGGTTAGTGCTAG` is recorded as 9.04 z-score.
Under “fitted relative affinity”, `TCATGCATCTGATTTCTCACTGTGCTA` is recorded as 1.06 z-score.
Under “fitted relative affinity”, `GACGGTTGCCTACTGCTGACGTGCTAG` is recorded as 0.171 z-score.
For `GACGAACTGAGTAGCGAGACGTGCTAG`, “fitted relative affinity” read -0.406 z-score.
`GACGATTCCAGTATCGAGACGTGCTAG`: “fitted relative affinity” 0.739 z-score.
Under “fitted relative affinity”, `TCACATATGTTTTTCATACTGTGCTAG` is recorded as 1.84 z-score.
Under “fitted relative affinity”, `TTAGGTTTCGGGACTGGGCTAGTGCTA` is recorded as 3.11 z-score.
For `TTGAATCTCCCATTATATTTGTGCTAG`, “fitted relative affinity” read 0.986 z-score.
`GAAGATTTCAGACTGGAGACGTGCTAG` — result for “fitted relative affinity”: -0.281 z-score.
For `TTAGGTATCGGTTACGGTTAGTGCTAG`, “fitted relative affinity” read 0.934 z-score.
For `AGGAGTATTTATCTGCAAAGGTGCTAG`, “fitted relative affinity” read -0.0899 z-score.

Block 3
Target: RNA binding protein fox-1 homolog 2, RRM domain, GST-SBP tag (RBFOX2, Homo sapiens, UniProt O43251-10, residues 100-194)
Technique: RNA Bind-n-Seq
Molecule type: RNA
Sample: in vitro
Tested at: 365 nM
Notes: natural RNA segment, single round, ends assumed
Relative to: no-protein control
Direction: higher = stronger binding
Residues (chain): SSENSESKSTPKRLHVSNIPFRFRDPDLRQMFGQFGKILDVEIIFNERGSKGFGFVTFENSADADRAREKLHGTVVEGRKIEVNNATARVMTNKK
Under “RBNS enrichment (R)”, `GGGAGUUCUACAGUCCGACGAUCGAAGCCAACCAUAUGCUCCUGCCUUGCCGAUAGGUUUUAUUAUUUUUUUUAAAUUAAUGAAAAUAUGUAAUAUUAAUAGUUAUUAUUUACUGGUGCAGAUGGUUGACAUUUGGAAUUCUCGGGUGCCAA` is recorded as 0.624.
Under “RBNS enrichment (R)”, `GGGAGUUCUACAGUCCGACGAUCUAAUAAUUAAGUUAUGUGGAAAAAGUAAGGCUGGGGAAGUCGUGAUUAAUAGUUUUCAAAGGGCCAUUUUUUAAAAUCCUCUGGGCAUUUUCUUUCAGCUGUUUGUUAGUUGGAAUUCUCGGGUGCCAA` is recorded as 0.934.
For `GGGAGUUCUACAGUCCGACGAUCGGAUGCAUUUGGAUGUACAGACUGACUGGGGGACUGUAUUGCGAUGAUGAUUGGUGUAGAAACGUAUGGGUCUGGGUGGCCUUUUACAUCUUGCCUACCAUUGCAUGAAAUGGAAUUCUCGGGUGCCAA`, “RBNS enrichment (R)” read 2.24.
For `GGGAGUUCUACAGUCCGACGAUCUAGUGUUUCACAAAGCUUAGACCUUUACCUUCCAGCCACCCCACAGUGCUUGAUAUUUCAGAGUCAGUCAUUGGUUAUACAUGUGUAGUUCCAAAGCACAUAAGCUAGAAUGGAAUUCUCGGGUGCCAA`, “RBNS enrichment (R)” read 0.352.
`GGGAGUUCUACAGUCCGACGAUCAUCCUUAAUGUAGUUCUCAUCCUCCGCAUGCCCUCAGCCACAAGCGGGUGACUGACUGUUCCCUGAUGAUUUGGCCCACCUCCUGUGUUUGGACCUCUAGGGAGGAGGGUUGGAAUUCUCGGGUGCCAA` — result for “RBNS enrichment (R)”: 12.5.
For `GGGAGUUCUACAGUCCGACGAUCCCACGUGGCUUCUUCGAUAGGAGCCACAACUUGGGGUGGGAAGAACUUGUCCCUCAGGCUUGUUGCCCUCUGCAGUUGAUCUCCAAAGUUUUAAACCUGUUAAAUUAAUUUGGAAUUCUCGGGUGCCAA`, “RBNS enrichment (R)” read 0.25.
`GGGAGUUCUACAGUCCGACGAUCAGUGGGGGCCCCUCAUCUAGAUCAUGAUAUGCCAGUUUCCAAGACAUCUUCUGAAGGCCCUCACUGCCUCAAGCCCUCUCCCCUCCUCGCAGGGCAGGCUUGGUGCACUGUGGAAUUCUCGGGUGCCAA` — result for “RBNS enrichment (R)”: 0.792.
Under “RBNS enrichment (R)”, `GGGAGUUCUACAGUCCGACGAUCUAUUUUUGGAAUAUUUGUAUUACUUACAAUUAAUUAAUAAAAGUGGGUUUAAAAAACCUUUCCAGGAUGUGAGCUGCCACCAACCUUCAUUGGCCCUUAAGUGUUCACUGUGGAAUUCUCGGGUGCCAA` is recorded as 0.365.

Block 4
Target: Sal-like protein 4, full length isoform B (SALL4, Homo sapiens, UniProt Q9UJQ4-2, residues 1-616)
Technique: universal PBM
Molecule type: double-stranded DNA, one strand shown
Sample: in vitro
Tested at: not given
Notes: 8-mer, flanks averaged, mean of replicates
Direction: higher = stronger binding
Target sequence (chain): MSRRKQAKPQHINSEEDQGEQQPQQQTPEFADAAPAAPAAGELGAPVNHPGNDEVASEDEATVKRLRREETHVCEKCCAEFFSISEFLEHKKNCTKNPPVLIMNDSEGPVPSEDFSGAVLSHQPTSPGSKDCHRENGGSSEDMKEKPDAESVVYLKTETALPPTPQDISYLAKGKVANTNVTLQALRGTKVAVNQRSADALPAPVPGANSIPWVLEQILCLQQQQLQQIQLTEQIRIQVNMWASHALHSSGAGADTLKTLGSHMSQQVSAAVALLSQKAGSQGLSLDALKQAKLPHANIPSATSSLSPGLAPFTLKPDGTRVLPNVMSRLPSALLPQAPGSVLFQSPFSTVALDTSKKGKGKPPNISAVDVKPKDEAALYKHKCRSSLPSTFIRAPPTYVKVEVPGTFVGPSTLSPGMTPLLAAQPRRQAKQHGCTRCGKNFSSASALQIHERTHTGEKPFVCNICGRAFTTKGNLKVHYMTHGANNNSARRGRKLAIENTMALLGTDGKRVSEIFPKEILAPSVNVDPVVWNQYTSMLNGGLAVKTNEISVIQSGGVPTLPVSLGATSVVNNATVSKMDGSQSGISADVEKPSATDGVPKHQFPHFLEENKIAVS
With `AGGACGAC` the E-score was -0.248.
The E-score of `AAGCAAGC` is reported as -0.0425.
`ATGGTCCA` has an E-score of -0.0542.
`CTAAGTCA` gave an E-score of 0.0966.
`AACGCACC` has an E-score of -0.125.
For `CTTTACGA`, the E-score was 0.148.
`AAGGATTC` gave an E-score of -0.144.
With `CTACCACA` the E-score was 0.0616.
`AGGAGAGC` gave an E-score of -0.299.
With `AGCTGCCG` the E-score was -0.253.
`TTAGCTAA` has an E-score of 0.211.
`AGATCCTG` gave an E-score of -0.088.
The E-score of `CCAAAGTA` is reported as 0.088.
`AAGTCGTC` has an E-score of -0.161.
`AGCTATTC` has an E-score of 0.0216.
`CCAAAATC` gave an E-score of -0.0535.
With `CCATCAAG` the E-score was -0.0845.
`CGGCCAGA` has an E-score of -0.297.
`AATGACAC` has an E-score of 0.168.
`CGACTAGC` gave an E-score of -0.0987.
`AAATAGCA` has an E-score of 0.202.
For `AAGCTGGC`, the E-score was -0.171.
For `CAAACTCA`, the E-score was -0.00096.
For `AGAGTCCA`, the E-score was -0.161.
The E-score of `ACAAAGGG` is reported as -0.0152.
